Published values collected from several papers.
Numbered parts are unrelated; each lists some results of a single study. “And” joins repeats or separate records; there may be more than shown.
Chain of UniProt P10721 (whole entry, unmodified, looked up): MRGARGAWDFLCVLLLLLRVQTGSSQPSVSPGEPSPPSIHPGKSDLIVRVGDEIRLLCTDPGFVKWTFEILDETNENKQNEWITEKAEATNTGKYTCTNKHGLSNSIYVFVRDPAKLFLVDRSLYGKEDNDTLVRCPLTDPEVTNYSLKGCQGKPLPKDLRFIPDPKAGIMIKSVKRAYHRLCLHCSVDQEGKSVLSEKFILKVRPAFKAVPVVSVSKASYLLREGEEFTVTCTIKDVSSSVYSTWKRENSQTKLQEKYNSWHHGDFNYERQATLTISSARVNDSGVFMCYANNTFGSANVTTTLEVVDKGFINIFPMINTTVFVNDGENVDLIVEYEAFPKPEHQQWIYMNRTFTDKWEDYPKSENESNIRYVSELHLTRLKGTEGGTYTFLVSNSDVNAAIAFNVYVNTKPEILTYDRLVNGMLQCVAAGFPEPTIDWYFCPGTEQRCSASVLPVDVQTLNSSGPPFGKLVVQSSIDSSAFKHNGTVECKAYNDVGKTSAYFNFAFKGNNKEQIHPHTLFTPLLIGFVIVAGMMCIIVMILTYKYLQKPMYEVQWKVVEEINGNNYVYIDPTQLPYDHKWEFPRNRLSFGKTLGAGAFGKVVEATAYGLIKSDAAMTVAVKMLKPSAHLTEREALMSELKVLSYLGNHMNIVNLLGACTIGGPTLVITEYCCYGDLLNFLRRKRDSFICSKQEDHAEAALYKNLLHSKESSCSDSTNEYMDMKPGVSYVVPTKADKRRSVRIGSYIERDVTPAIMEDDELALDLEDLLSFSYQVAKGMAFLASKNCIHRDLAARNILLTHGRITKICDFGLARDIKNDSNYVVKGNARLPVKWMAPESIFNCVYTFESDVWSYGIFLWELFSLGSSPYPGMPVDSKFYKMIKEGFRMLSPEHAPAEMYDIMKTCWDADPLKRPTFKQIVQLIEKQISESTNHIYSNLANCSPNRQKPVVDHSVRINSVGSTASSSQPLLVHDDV
Chain of UniProt Q8NE63 (whole entry, looked up): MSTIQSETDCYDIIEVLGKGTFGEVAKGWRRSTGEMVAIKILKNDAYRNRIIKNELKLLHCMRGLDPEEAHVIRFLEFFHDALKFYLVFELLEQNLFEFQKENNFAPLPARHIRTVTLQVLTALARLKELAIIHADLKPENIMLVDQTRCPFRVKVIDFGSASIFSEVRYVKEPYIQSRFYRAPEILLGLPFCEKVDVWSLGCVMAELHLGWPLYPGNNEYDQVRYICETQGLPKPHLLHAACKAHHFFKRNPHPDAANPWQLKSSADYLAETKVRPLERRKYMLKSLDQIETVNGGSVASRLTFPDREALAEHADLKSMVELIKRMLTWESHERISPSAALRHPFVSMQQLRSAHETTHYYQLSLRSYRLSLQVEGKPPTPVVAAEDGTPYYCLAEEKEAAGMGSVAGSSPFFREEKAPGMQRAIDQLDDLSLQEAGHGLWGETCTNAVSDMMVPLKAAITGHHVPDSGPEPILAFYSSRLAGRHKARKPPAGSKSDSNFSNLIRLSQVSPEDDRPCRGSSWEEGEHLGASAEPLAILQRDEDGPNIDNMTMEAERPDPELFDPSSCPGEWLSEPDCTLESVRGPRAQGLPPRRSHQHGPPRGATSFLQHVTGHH
Chain of UniProt Q05655 (whole entry, looked up): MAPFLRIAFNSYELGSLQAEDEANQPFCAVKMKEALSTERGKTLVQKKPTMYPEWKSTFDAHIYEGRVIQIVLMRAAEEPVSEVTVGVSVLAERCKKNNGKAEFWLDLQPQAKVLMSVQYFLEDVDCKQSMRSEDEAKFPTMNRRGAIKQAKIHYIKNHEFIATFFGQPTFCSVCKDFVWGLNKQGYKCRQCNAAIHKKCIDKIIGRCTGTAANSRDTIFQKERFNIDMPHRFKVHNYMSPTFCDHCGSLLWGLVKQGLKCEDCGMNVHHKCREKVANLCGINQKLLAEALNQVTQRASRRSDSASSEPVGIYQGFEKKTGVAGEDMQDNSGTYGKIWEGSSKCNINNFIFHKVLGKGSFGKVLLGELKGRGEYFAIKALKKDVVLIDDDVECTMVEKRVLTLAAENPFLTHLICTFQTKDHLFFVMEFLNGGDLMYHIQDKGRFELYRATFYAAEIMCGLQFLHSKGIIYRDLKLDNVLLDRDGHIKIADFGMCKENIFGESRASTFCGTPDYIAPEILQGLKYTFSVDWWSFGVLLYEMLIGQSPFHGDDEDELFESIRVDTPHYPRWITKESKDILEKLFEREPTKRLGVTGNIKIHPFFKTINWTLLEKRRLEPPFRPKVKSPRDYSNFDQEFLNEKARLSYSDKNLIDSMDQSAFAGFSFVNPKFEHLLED
Chain of UniProt P49759 (whole entry, looked up): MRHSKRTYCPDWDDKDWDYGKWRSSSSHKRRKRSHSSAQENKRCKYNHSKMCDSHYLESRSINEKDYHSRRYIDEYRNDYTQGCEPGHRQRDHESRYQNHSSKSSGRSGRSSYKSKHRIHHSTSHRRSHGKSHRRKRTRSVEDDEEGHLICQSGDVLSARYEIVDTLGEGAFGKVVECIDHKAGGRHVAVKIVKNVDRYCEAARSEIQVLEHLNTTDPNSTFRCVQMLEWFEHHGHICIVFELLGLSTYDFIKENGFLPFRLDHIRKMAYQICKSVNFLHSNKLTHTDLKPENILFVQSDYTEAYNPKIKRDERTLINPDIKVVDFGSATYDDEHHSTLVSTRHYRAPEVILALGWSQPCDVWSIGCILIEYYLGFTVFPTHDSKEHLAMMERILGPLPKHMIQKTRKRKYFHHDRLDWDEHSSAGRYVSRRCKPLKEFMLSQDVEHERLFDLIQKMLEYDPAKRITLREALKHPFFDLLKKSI
Chain of UniProt Q8NG66 (whole entry, looked up): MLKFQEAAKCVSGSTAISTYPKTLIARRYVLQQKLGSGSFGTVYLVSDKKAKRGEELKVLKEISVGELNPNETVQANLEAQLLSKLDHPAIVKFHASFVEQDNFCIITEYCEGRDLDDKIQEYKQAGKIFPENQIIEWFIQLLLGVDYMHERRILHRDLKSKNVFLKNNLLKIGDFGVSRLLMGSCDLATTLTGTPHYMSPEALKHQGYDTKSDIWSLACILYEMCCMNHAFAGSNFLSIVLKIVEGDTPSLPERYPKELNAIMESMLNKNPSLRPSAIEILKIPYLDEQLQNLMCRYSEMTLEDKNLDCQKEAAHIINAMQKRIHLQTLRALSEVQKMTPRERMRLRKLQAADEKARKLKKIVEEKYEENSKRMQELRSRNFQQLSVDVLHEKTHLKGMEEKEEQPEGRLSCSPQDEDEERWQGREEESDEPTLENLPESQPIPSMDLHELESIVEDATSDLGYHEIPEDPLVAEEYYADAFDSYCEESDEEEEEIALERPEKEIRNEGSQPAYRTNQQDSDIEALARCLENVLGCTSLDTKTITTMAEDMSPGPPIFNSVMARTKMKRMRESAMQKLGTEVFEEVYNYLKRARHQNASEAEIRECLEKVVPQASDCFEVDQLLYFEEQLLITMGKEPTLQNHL
Chain of UniProt P0C264 (whole entry, looked up): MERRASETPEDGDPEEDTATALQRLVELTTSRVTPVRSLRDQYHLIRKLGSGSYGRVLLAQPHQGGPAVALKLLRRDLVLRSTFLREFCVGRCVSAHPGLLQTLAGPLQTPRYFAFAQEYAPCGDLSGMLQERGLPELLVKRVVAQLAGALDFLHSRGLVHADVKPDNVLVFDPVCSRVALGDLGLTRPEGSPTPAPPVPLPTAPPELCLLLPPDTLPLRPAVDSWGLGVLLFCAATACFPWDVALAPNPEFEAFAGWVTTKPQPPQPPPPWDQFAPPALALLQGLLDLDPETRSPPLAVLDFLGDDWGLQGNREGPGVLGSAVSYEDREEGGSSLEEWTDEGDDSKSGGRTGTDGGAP
Chain of UniProt Q13976 (whole entry, looked up): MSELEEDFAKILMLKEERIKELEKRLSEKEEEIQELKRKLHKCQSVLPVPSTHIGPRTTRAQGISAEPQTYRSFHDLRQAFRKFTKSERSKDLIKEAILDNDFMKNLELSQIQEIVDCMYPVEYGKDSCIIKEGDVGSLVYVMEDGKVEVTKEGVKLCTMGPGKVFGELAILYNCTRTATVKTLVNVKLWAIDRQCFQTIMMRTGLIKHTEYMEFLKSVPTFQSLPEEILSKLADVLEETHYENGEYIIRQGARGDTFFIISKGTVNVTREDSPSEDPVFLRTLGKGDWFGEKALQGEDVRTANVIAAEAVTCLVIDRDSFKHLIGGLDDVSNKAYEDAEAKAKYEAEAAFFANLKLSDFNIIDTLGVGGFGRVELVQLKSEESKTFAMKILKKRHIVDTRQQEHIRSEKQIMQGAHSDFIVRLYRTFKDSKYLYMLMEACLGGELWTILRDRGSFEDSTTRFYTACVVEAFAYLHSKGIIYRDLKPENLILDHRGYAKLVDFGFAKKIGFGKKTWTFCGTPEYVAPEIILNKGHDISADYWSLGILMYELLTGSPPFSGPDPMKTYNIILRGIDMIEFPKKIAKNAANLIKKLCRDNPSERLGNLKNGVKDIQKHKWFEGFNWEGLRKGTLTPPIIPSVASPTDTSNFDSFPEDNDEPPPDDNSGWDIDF
Chain of UniProt P48729 (whole entry, looked up): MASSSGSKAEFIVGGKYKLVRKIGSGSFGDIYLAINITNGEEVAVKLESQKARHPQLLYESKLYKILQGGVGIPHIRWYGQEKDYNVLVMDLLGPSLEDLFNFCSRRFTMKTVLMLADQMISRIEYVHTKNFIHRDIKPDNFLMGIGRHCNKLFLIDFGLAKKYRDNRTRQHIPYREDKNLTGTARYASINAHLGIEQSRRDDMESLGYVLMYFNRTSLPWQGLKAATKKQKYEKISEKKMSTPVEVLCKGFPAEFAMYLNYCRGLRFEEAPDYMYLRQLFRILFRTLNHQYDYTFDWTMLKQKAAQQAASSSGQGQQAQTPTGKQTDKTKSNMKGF

Block 1 — effect on: binding; mode: competitor; method: NanoBRET; cell line: HEK293
SMILES: CCC(=O)N1CCN(c2nc(OC[C@@H]3CCCN3C)nc3c2CCN(c2cccc4cccc(Cl)c24)C3)C[C@@H]1CC#N
KRAS Q61L: GTPase KRas (KRAS, Homo sapiens, UniProt P01116, Q61L)
KRAS Q61R: GTPase KRas (KRAS, Homo sapiens, UniProt P01116, Q61R)
target | concentration | normalized BRET
KRAS Q61L | 1.69 nM | 103% and 104% and 100%
KRAS Q61R | 11.1 µM | 110% and 91.2% and 111%
KRAS Q61R | 1.69 nM | 104% and 109% and 103%
KRAS Q61L | 3.7 µM | 39.6% and 40.9% and 43.4%
KRAS Q61L | 137 nM | 90.1% and 103% and 91.1%

Block 2
Structure (SMILES): Cc1ccc(NC(=O)c2ccnc(C(F)(F)F)c2)cc1-c1cc(OCCO)nc(N2CCOCC2)c1
target | effect on | method | concentration | remaining binding [%]
MAP3K7 (Homo sapiens, UniProt O43318) | binding | competition with immobilised ligand | 1 µM | 96
ERN1 (Homo sapiens, UniProt O75460) | binding |  | 1 µM | 71
HIPK4 (Homo sapiens, UniProt Q8NE63) | binding | competition with immobilised ligand | 1 µM | 98
MAP2K2 (Homo sapiens, UniProt P36507) | binding | competition with immobilised ligand | 1 µM | 89
CDC42BPG (Homo sapiens, UniProt Q6DT37) |  | DiscoverX cell-free binding | 1000 nM | 81
FGFR1 (Homo sapiens, UniProt P11362) | binding | competition with immobilised ligand | 1 µM | 100

Block 3 — cell line: A-375; concentration: 100 µM; time: 36 h
Compound | viability
CC(C)C(=O)c1c(C(C)C)nn2ccccc12 | 88.4%
C[C@@H](NCCc1ccc(O)cc1)[C@@H](O)c1ccc(O)cc1 (racemic) | 103%
NCCc1ccc(O)c(O)c1 | 54.6%
CC(=O)O[C@@]12CO[C@@H]1C[C@H](O)[C@@]1(C)C(=O)[C@H](O)C3=C(C)[C@@H](OC(=O)[C@H](O)[C@@H](NC(=O)OC(C)(C)C)c4ccccc4)C[C@@](O)([C@@H](OC(=O)c4ccccc4)[C@H]21)C3(C)C | 24.6%
C[C@H](Cc1cc2c(c(C(N)=O)c1)N(CCCO)CC2)NCCOc1ccccc1OCC(F)(F)F | 76.8%
COc1ccc(NS(=O)(=O)c2ccc(N)cc2)nn1 | 102%
NCCNc1ccc(NCCN)c2c1C(=O)c1ccncc1C2=O | 0.687%
Nc1ncnc2c1ncn2[C@@H]1O[C@H](CO)[C@@H](O)[C@@H]1O | 57.2%

Block 4 — effect on: cell-free assay; method: competition with immobilised ligand; concentration: 1 µM
SMILES: Cc1nccc(COC(=O)N2C[C@@H]3[C@@H](CNC(=O)c4ccc5[nH]nnc5c4)[C@@H]3C2)n1
target | remaining binding
RIPK1 (Homo sapiens, UniProt Q13546) | 86%
NEK11 (Homo sapiens, UniProt Q8NG66) | 88%
SGK3 (Homo sapiens, UniProt Q96BR1) | 100%
STK38 (Homo sapiens, UniProt Q15208) | 100%
SRMS (Homo sapiens, UniProt Q9H3Y6) | 87%
CAMK2A (Homo sapiens, UniProt Q9UQM7) | 65%
TNIK (Homo sapiens, UniProt Q9UKE5) | 100%
KIT (Homo sapiens, UniProt P10721, A829P) | 94%
CLK1 (Homo sapiens, UniProt P49759) | 100%
PRKG1 (Homo sapiens, UniProt Q13976) | 100%
CSNK1A1 (Homo sapiens, UniProt P48729) | 86%
EGFR (Homo sapiens, UniProt P00533, G719S) | 100%
Tyrosine-protein kinase ABL1, non-phosphorylated (ABL1, Homo sapiens, UniProt P00519) | 91%
MET (Homo sapiens, UniProt P08581) | 94%
ROCK1 (Homo sapiens, UniProt Q13464) | 71%
KIT (Homo sapiens, UniProt P10721, D816V) | 100%
Ribosomal protein S6 kinase alpha-2, C-terminal kinase domain (RPS6KA2, Homo sapiens, UniProt Q15349) | 91%
EPHA5 (Homo sapiens, UniProt P54756) | 93%
MAP3K11 (Homo sapiens, UniProt Q16584) | 100%
MAP4K5 (Homo sapiens, UniProt Q9Y4K4) | 100%
SBK3 (Homo sapiens, UniProt P0C264) | 54%
PKN1 (Homo sapiens, UniProt Q16512) | 100%
EGFR (Homo sapiens, UniProt P00533, del752-759) | 100%
SRPK2 (Homo sapiens, UniProt P78362) | 77%
PRKCD (Homo sapiens, UniProt Q05655) | 95%

Block 5 — species: human; sample: microsomes or S9; concentration: 2 µM; time: 0.5 h
SMILES | remaining compound
COc1cccc(-c2nc3cnccn3c2NCCC(=O)Nc2ccc3c(c2)OCCO3)c1 | 2.39%
CCN1C(=O)CCN(S(=O)(=O)c2cn(C)cn2)CC12CCOCC2 | > 100%
O=S(=O)(NC1CCCCC1)c1ccc(-c2nnc(C3CCC3)o2)s1 | 20.5%
CCCc1cc(N2CCC3(CCC(=O)N(CCc4c[nH]cn4)C3)CC2)nc(C)n1 | 90.4%
Cc1ccccc1-c1nc2ccccc2cc1Cn1nc(NCCCO)c2c(N)ncnc21 | 2.23%
Brc1ccccc1Cn1c(-c2ccc(Oc3ccccc3)cc2)cn2ncnc12 | 47.7%

Mixed results
Structure (SMILES) | species | dose | time | endpoint | result
CC1=C(/C=C/C(C)=C/C=C/C(C)=C/C(=O)O)C(C)(C)CCC1 | NSG mouse, HuT78 xenograft | dose not given | end of study | tumour weight | 0.628 g and 0.631 g and 0.689 g and 0.735 g

A few entries again (block 5):
SMILES | remaining compound
O=S(=O)(NC1CCCCC1)c1ccc(-c2nnc(C3CCC3)o2)s1 | 20.5%
Cc1ccccc1-c1nc2ccccc2cc1Cn1nc(NCCCO)c2c(N)ncnc21 | 2.23%
CCCc1cc(N2CCC3(CCC(=O)N(CCc4c[nH]cn4)C3)CC2)nc(C)n1 | 90.4%
Brc1ccccc1Cn1c(-c2ccc(Oc3ccccc3)cc2)cn2ncnc12 | 47.7%
COc1cccc(-c2nc3cnccn3c2NCCC(=O)Nc2ccc3c(c2)OCCO3)c1 | 2.39%
CCN1C(=O)CCN(S(=O)(=O)c2cn(C)cn2)CC12CCOCC2 | > 100%
